Measurements from different studies.
Every numbered part comes from another study and shows a few of its results, in no order.
Sequence of UniProt P42684 (whole entry, looked up): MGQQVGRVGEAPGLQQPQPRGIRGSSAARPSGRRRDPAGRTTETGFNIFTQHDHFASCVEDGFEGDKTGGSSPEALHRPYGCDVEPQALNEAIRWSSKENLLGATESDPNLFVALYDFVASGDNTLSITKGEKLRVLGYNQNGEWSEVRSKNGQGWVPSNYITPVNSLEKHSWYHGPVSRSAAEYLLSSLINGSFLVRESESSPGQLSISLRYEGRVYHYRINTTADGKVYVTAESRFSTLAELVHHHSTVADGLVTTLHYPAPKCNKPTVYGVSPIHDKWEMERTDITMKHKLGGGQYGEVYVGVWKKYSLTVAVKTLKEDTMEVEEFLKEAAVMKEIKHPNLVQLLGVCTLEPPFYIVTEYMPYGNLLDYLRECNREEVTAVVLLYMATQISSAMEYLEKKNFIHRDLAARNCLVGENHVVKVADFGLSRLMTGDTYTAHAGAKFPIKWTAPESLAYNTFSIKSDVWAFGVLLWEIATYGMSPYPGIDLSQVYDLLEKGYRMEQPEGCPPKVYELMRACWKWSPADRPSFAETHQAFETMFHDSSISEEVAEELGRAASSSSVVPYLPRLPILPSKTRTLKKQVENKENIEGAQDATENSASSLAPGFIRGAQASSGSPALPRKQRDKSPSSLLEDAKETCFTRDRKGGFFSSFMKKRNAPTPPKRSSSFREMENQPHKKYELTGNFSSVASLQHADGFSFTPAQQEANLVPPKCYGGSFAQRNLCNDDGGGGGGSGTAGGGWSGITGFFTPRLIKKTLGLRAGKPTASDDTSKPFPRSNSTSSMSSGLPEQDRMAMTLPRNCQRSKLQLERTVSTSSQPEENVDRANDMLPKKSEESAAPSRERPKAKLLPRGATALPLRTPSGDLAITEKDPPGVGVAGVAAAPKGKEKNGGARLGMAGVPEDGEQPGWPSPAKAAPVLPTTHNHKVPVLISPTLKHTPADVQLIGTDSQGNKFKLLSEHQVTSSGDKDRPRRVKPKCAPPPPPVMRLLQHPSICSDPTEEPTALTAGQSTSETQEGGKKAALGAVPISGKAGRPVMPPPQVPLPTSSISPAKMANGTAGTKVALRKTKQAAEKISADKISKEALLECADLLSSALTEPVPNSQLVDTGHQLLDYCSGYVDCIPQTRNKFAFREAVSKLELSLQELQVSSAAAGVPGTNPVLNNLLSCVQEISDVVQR
Sequence of UniProt P10398 (whole entry, looked up): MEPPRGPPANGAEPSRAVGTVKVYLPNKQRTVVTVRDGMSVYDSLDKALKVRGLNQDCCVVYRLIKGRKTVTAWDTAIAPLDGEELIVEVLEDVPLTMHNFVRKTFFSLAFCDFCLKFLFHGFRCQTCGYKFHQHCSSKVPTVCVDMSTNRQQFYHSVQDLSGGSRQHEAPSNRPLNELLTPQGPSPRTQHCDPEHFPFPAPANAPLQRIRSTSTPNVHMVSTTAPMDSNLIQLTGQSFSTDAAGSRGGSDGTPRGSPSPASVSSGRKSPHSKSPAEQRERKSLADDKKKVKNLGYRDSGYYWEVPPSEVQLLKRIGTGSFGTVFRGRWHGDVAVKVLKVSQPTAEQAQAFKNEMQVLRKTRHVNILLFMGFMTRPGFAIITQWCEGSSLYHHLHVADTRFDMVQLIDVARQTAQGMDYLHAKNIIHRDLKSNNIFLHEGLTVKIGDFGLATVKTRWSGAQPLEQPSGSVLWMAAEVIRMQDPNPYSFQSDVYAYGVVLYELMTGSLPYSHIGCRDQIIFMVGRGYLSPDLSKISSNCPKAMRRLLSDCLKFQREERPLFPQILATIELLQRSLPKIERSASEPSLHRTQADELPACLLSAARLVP
Sequence of UniProt Q8IYT8 (whole entry, looked up): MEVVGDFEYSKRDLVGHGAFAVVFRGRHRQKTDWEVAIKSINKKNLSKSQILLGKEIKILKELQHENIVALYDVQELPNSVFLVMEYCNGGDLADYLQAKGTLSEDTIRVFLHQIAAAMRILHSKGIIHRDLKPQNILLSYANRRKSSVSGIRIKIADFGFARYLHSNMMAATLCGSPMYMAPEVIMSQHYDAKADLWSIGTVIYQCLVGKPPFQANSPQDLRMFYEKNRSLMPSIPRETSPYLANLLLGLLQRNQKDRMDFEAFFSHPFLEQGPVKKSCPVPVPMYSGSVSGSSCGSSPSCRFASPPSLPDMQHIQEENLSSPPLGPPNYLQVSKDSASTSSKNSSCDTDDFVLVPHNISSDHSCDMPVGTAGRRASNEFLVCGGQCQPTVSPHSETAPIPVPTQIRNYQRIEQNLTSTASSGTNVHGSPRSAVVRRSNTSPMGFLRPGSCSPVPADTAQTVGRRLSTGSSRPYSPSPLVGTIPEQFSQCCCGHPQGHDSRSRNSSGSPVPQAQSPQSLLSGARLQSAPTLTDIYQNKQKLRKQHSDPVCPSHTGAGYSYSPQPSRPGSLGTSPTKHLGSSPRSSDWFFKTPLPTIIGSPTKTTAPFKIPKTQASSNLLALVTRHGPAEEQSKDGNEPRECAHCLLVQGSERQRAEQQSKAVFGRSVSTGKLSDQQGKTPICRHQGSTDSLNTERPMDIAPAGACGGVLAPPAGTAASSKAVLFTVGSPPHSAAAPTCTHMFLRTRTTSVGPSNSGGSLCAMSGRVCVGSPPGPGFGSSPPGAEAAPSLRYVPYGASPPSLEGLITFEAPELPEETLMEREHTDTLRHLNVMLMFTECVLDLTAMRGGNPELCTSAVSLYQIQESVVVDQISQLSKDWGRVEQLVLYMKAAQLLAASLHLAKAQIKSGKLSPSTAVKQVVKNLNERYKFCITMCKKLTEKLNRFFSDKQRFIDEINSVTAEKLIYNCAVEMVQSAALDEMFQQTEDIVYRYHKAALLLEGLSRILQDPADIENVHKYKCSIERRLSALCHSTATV
Sequence of UniProt P06239 (whole entry, looked up): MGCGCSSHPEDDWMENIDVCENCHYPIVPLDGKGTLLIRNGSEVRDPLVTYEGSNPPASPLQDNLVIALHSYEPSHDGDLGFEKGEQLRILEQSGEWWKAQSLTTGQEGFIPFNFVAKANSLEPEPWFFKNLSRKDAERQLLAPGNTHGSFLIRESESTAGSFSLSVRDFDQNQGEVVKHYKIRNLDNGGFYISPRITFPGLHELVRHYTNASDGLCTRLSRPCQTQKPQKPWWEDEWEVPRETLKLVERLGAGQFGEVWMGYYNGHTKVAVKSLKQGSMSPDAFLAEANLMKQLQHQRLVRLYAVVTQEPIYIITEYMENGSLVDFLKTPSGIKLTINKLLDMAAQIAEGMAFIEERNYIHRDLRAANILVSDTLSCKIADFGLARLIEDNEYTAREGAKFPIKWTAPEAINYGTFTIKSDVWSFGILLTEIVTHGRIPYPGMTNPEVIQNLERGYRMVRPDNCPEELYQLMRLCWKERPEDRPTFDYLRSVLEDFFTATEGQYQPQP
Sequence of UniProt Q15349 (whole entry, looked up): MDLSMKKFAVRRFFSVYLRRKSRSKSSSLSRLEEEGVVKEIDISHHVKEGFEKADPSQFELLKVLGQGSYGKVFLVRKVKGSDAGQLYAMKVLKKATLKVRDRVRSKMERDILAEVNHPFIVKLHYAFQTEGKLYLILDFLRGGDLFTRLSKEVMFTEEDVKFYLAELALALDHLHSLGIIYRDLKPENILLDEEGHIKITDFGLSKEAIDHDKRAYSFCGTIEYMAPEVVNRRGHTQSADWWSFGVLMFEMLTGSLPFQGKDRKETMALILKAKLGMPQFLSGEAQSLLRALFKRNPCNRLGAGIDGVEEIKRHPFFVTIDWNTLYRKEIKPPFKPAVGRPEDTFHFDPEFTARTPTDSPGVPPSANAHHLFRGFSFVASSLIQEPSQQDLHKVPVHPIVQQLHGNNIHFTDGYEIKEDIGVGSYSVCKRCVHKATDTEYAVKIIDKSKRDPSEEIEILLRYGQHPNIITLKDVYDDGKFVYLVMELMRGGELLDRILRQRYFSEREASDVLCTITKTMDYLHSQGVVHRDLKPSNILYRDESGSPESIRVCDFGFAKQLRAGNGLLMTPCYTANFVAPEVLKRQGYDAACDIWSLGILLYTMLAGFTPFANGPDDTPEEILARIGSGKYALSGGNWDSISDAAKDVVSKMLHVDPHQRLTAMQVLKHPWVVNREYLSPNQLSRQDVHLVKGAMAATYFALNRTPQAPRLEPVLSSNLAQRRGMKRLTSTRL
Sequence of UniProt P78368 (whole entry, looked up): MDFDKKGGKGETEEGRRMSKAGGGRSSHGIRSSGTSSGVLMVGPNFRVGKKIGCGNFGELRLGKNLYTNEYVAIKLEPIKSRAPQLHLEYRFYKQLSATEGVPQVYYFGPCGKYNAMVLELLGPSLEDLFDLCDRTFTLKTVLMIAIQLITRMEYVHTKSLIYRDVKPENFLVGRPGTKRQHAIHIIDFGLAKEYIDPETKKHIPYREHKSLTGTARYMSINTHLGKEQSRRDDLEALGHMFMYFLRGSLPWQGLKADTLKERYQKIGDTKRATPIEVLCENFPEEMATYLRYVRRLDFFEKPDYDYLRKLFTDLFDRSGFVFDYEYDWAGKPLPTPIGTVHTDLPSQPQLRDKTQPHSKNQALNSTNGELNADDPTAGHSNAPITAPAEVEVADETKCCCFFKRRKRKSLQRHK

Block 1 — observed: binding; technique: radioligand binding; tested at: 10 µM; endpoint: inhibition
Target: Alpha-2B adrenergic receptor (ADRA2B, Homo sapiens, UniProt P18089)
Sequence of UniProt P18089 (whole entry, looked up): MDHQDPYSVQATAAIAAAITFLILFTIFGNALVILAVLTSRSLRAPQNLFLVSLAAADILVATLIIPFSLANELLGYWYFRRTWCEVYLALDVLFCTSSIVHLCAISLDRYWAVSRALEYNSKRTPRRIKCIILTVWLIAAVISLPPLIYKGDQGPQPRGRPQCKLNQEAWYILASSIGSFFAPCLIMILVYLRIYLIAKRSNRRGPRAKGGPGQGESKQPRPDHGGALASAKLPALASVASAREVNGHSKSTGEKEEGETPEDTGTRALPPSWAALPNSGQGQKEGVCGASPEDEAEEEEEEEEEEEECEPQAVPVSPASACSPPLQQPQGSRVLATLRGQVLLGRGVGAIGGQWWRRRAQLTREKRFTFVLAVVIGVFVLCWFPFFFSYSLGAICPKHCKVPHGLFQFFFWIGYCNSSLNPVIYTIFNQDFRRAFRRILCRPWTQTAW
CC(=O)N1CCC(c2ccc(C(=O)NC(=N)N)cc2C(F)(F)F)CC1: 6.29%
CC(=O)Nc1c(F)cc(C(=O)N[C@H]2CC[C@H](O)CC2)cc1O[C@@H](C)c1ccccc1: 3.38%
O=C(Nc1cccnn1)N1CCC(=Cc2cccc(Oc3ccc(C(F)(F)F)cn3)c2)CC1: 40%
O=C1c2ccc(Nc3ccc(F)cc3F)cc2CCc2ccc(OC[C@H](O)CO)cc21: 4.37%
CC(C)(O)c1cncc(-c2nc3ccc(F)cc3n2C2CC2)c1: 76.4%
CN([C@@H]1CCc2c(CC(=O)O)c3cc(S(C)(=O)=O)ccc3n2C1)S(=O)(=O)c1ccc(F)cc1: -2.39%
Cc1nc(C2CCN(C(=O)c3ccc(OC(F)(F)F)cc3N)CC2)c2ncc(N3CCN(C)CC3)cc2n1: -12.6%
Cc1c(NC(=O)c2cc(C(N)=O)nc3cc(F)ccc23)c(C(F)(F)F)nn1Cc1ccc(C(C)(C)C)cc1: 15.6%
C[C@@H]1CN(c2cc(-c3nn(C)c4ccc(OC5(C)CC5)cc34)ncn2)C[C@H](C)O1: 27.2%

Block 2 — technique: aptamer microarray, sandwich; molecule type: DNA with 2'F-ANA; matrix: in vitro; tested at: 200 nM; added: Cy3 exosite-II aptamer, 400 nM; reading: higher = stronger binding; endpoint: mean fluorescence intensity; sequence: GGTTGGTGTGGTTGG
Target: Prothrombin, mature alpha-thrombin (F2, Homo sapiens, UniProt P00734)
Setting: whole 15-mer aptamer, many near background
2'F-ANA at 1 3 4 7 13: 141 a.u.
2'F-ANA at 1 4 6 8 11 12 14 15: 57.3 a.u.
2'F-ANA at 2 3 4 6 7 8 10 11 12 15: 350 a.u.
2'F-ANA at 3 6 7 8 13 14 15: 585 a.u.
2'F-ANA at 4 5 6 11 13 14: 48 a.u.
2'F-ANA at 3 6 7 8: 1170 a.u.
2'F-ANA at 1 2 7 10 15: 52.8 a.u.
2'F-ANA at 4 6 8 9 10 11 12: 92.6 a.u.

Block 3 — Structure (SMILES): c1ccc2c(-c3ccncc3)c[nH]c2c1; observed: enzyme activity; mode: inhibitor; tested at: 0.5 µM; relative to: control; endpoint: remaining activity
ULK2 (Homo sapiens, UniProt Q8IYT8): 106%
GRK7 (Homo sapiens, UniProt Q8WTQ7): 98.4%
NEK6 (Homo sapiens, UniProt Q9HC98): 93.4%
RPS6KA2 (Homo sapiens, UniProt Q15349): 89%
LCK (Homo sapiens, UniProt P06239): 102%
EPHA3 (Homo sapiens, UniProt P29320): 107%
ARAF (Homo sapiens, UniProt P10398): 97.7%
CSNK1G2 (Homo sapiens, UniProt P78368): 95%
ABL2 (Homo sapiens, UniProt P42684): 91.9%
MAPKAPK2 (Homo sapiens, UniProt P49137): 101%
WEE1 (Homo sapiens, UniProt P30291): 89.3%
FGFR3 (Homo sapiens, UniProt P22607): 98.9%
MAP3K5 (Homo sapiens, UniProt Q99683): 109%
FGFR1 (Homo sapiens, UniProt P11362): 92.7%

Block 4 — technique: RNAcompete; molecule type: RNA; matrix: in vitro; tested at: 20 nM; setting: 7-mer, probes averaged, single round; relative to: mean of 7-mers; reading: higher = stronger binding; endpoint: 7-mer Z-score
Target: PABPC1L2, full length, GST fusion (mouse, UniProt A0ABA7IW68)
Construct (chain): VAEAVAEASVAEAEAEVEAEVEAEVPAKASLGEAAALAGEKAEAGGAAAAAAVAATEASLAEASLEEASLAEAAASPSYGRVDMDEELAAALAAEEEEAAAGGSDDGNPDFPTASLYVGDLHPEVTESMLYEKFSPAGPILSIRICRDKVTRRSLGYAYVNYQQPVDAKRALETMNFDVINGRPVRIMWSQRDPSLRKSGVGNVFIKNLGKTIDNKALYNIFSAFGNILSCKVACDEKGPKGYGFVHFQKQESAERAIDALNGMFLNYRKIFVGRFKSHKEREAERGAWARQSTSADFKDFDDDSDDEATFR
CUGUAAG: -0.202
CGCCGAG: -0.193
CACGUCC: -0.278
GAAUAUU: -0.242
AGCGUCC: -0.0156
AUCUAUG: -0.117
GGAACGG: 0.332
GAGCUGA: 0.046

For quick reference, copied from above (block 3):
CSNK1G2 (Homo sapiens, UniProt P78368): 95%
FGFR1 (Homo sapiens, UniProt P11362): 92.7%
GRK7 (Homo sapiens, UniProt Q8WTQ7): 98.4%
